Published values from different studies.
Every numbered part comes from another study and shows a few of its results, in no order.

Sample 1 — method: RNA Bind-n-Seq; molecule type: RNA; matrix: in vitro; concentration: 20 nM; notes: 6-mer, flanks averaged, single round; added: 150 mM KCl; baseline: input library; reading: higher = stronger binding
Target: TAR DNA-binding protein 43, full length, His tag (TARDBP, Homo sapiens, UniProt Q13148, residues 1-414)
`CUGGGG`: “6-mer enrichment (R)” 3.75.
`CUCUAU` — result for “6-mer enrichment (R)”: 0.56.
`AAAUCU`: “6-mer enrichment (R)” 0.587.
`CGUACG`: “6-mer enrichment (R)” 0.862.
Under “6-mer enrichment (R)”, `AUGGGC` is recorded as 1.98.
`CCUAAU`: “6-mer enrichment (R)” 0.611.
For `ACUGGC`, “6-mer enrichment (R)” read 0.836.
For `CCAUCU`, “6-mer enrichment (R)” read 0.577.

Sample 2 — method: protein-binding microarray; molecule type: double-stranded DNA, one strand shown; matrix: in vitro; concentration: 0.8 µM; notes: whole 60-bp probe, no competitor; reading: higher = stronger binding
Target: Centromere-binding protein 1, full length, N-terminal tag (CBF1, Saccharomyces cerevisiae, UniProt P17106, residues 1-351)
UniProt P17106, sequence (whole entry, looked up): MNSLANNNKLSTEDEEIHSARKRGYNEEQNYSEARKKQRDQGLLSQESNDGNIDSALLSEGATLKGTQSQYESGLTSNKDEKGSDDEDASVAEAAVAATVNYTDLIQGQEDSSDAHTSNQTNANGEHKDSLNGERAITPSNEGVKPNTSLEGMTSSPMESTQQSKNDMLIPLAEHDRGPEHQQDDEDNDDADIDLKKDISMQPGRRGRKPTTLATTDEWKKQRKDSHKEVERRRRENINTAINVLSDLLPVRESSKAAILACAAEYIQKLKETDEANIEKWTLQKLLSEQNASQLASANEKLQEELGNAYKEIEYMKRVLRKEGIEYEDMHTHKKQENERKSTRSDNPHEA
`CTATGAGCTCACTGTGACGTCGATGCATGCGCGTTCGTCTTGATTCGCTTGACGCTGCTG` has a fluorescence intensity of 508 a.u.
`GAACGACGATTTCCTCACGAGATGGGATGGTAATAGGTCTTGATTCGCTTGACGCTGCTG` has a fluorescence intensity of 604 a.u.
`GAAGGAGAATAACATGTGATCTGAAAACTCATTTAGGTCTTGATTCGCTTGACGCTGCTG` gave a fluorescence intensity of 3540 a.u.
`GAAAACCTGGCCACGAACGTGTGGTGGGCTAGTTAGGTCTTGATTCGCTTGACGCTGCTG` gave a fluorescence intensity of 510 a.u.
The fluorescence intensity of `GAACTGAGATCTACCTGACGGGCGGTGAAAGCCTAGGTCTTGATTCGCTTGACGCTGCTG` is reported as 523 a.u.
`GAAACACAGATCTTGCGTGCTCCGAAATAGCCTTAGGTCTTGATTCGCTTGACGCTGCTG` has a fluorescence intensity of 521 a.u.
`CTATTAGTGCTTCAGTACCTGATGCAAGAAATTTTCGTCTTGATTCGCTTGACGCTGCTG` has a fluorescence intensity of 512 a.u.
`CTATAGTAGGTTCACGTTATGTCTCTCTTTAGCTTCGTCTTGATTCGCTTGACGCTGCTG` gave a fluorescence intensity of 599 a.u.

Sample 3 — method: EMSA with sequencing; molecule type: double-stranded DNA, one strand shown; matrix: in vitro; concentration: 10 and 20 nM; baseline: negative control set to 0; reading: higher = stronger binding
Target: Hepatocyte nuclear factor 3-alpha (Foxa1, Mus musculus, UniProt P35582, residues 1-468, full length assumed)
UniProt P35582, sequence (whole entry, looked up): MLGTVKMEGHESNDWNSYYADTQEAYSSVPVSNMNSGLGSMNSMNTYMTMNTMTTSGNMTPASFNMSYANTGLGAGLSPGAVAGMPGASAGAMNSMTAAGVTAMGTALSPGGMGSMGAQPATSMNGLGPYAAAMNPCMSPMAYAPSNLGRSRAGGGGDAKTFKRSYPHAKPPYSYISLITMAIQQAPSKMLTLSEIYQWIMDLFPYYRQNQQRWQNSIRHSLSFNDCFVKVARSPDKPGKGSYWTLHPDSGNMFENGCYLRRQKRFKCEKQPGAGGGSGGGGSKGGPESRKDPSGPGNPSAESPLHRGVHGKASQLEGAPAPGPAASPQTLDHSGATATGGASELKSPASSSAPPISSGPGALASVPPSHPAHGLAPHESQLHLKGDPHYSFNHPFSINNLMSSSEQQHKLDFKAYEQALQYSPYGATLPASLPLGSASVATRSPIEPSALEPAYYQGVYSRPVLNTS
Notes: whole designed probe, mean of two concentrations, ends assumed
Under “normalised bound fraction”, `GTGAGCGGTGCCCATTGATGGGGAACCAATGCCACTTTAAAAAATATAAACAGGCCGAATGCCAACTGAGATAGTGACTACTGCTGTAACAAACCTTGGTAAATAGTGAGCAATACTAAAGTAAATAGCACTTGTGGATAAAAGTTTGACATCAATTCCGTTGGCTACATTTTTCATAAATTATCATCTATAATAAAAGTCATTCTGCTATATTACTTTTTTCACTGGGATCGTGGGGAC` is recorded as 0.425 ratio.
`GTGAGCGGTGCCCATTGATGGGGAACATCTTCCCCCTCTTCCTTGCCCCACCAGCTCACCTTCCCGGGTATCTGCAAATAAGTATTTATTTTCAAGCCGGCATTCGTTAACCCTCTTCTGGCGCAAACTGCCAGAGCAAACAGATCTAACATGGTCCTTTGGCGACGCCAGGCTCCGGGAGAGCAAAGCACCGTGTCAGGGCCATGATCCGGGGTGGCCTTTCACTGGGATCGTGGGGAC` — result for “normalised bound fraction”: 0.242 ratio.
`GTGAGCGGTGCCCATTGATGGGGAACTTGCATTTTCTAAACAAAATTTTAAAAAGATATCATGTGTACATACAGGTCAAAAGTATTTGAGCTAAGAATGCCAAAGTCCTTACTTCCCTTGTTTACTTAAGCTATAGCTTAGACACTTGGTATTTATCGATATTTTAAAGTAATCGACCAGGATTTTACATATCATATTCCTTAAAATAAAGATGTATGGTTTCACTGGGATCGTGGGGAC` — result for “normalised bound fraction”: 0.515 ratio.
For `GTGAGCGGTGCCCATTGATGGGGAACATCTTCCCCCTCTTCCTTGCCCCACCAGCTCACCTACGGGGGTTATTTGCAGATAGGAAAATAAATAAAGCCGGCATTCGTTAACGCAGTTCACGCGCATACTGCTGTTTGCTCTGGATCTAACATGGTCCTTTGGCGACGCCAGGCTCCGGGAGAGCAAAGCACCGTGTCAGGGCCATGATCCGGGGTGGCCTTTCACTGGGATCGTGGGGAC`, “normalised bound fraction” read 0.354 ratio.
`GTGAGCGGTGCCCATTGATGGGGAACCTATGTGCTGCCCCCAGAGGTGGAGTGTACAGAGGCAGGCAGGCTTCCTTGAGCTGCAGTGAGTTCCACCCAGTTTGAGCTTCCTGGCTGCTTAGATTACCTACTCAAGCCTCAGCAATGGCGACGCCCCTCCCTCAGCCTGGCTGCTGTCTTGCAGTTAGATCTCAGACTGCTGTGCCAGCAGTGAGCAAGGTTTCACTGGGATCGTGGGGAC`: “normalised bound fraction” -0.0618 ratio.
`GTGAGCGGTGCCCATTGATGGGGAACATAAATGAGATTCTTTGAATCTACATAACTGGTCAAGATAATAAATGCATTAGGAATTCCCAGAGGATAGGCAGTTTGGGACTGAGATCACTGTGTAAACATGAAGATGCAGGTTGAAGTAGACTTTTATTAAAATTTGAGCTAAAGTGGATAAGGTTCAGATAGACTACAGTATGGGGTGGACACTGTATTATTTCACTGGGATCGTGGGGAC` — result for “normalised bound fraction”: 0.457 ratio.
Under “normalised bound fraction”, `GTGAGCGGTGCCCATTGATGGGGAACAGGTGAATTGGCTGCTTCCATCCTGGCTTGGAACTTCAGACATAGAAGCCTTGGGACTTTCTCAGGACTTTCTCCAGATCTGTCACATGCTCAGCAAACAAGCACTGACTCATGCCACGTGACCTTAGCCAGGGATGTTGGTGAAACTGTGTGTTGGTCTAGGTACCTAGCCCATGCTAGGTGCTCATCGAATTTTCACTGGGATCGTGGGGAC` is recorded as 0.112 ratio.
`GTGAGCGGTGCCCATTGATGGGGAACAGAACTTGGGTTGCCACAAAGAGATCTGAACTTGTTTTAACTTGTTAAGTCAGTTTTAGAAATACAAAGGTTTAAAGCAGTTTGATGGCTATGTAATTTAGGAAGTTTGCAAAGAACCTGGGTCTACCTCTGGCTATTCAGCAGCTTGGCAAGAGATGACCCGAGTTCTCAGAGTCCCCATCTTTGCATCTGTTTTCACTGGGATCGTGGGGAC` — result for “normalised bound fraction”: -0.0564 ratio.

Single results of other studies
With CS(=O)(=O)N(Cc1ccco1)Cc1ccc(C(=O)O)o1 the remaining compound was 96.5% (human, microsomes or S9; 2 µM, 0.5 h).
